Assay results from different studies.
Numbered parts are unrelated; each lists some results of a single study.

Block 1
Organism: Saccharomyces cerevisiae
Read-out: binding
Technique: yeast competitive growth sequencing
Form: peptide
Notes: cyclin B2-Cln2 chimera
Reading: direction not given
Measurement: enrichment score
QNPCGSKACRRLFGPV: -1.15
ATNSSHTDAHEILVSD: 0.689
SNFFDVIKQLFSDEKN: -1.4
NSMKELNFSHLPSNSV: 0.816
DVSERGYVILPNDYFE: 0.784
NEGVSNAVRRSLYIRD: -0.481
ASVLSKPIFCFVKD: -0.385
HPESPPRKRLKSKGSD: 4.76
LENIEPLQVSFAVLSS: 1.01

Block 2
Target: Cyclic AMP-responsive element-binding protein 1, full length (CREB1, Homo sapiens, UniProt P16220, residues 1-327)
UniProt P16220, sequence (whole entry, looked up): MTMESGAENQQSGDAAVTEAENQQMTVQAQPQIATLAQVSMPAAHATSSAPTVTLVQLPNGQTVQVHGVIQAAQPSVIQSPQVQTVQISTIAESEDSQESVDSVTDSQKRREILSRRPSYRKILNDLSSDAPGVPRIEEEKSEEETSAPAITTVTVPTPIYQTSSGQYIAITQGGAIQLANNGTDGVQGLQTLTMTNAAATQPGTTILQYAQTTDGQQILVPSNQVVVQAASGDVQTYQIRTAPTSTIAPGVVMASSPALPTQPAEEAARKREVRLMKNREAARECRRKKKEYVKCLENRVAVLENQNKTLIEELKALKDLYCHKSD
Technique: protein-binding microarray
Form: hairpin DNA
Matrix: in vitro
Concentration: not given
Notes: whole hairpin DNA, median over replicate spots
Relative to: not given
Reading: higher = stronger binding
Measurement: median fluorescence
GAGGCCGCGTGACGTCAGCCTCCTGGCTGACGTCACGCGGCCTCACACTC (5mC at 8 36): 21400 a.u.
GAGGCCGACGACGTAGTGCCTCCTGGCACTACGTCGTCGGCCTCACACTC (5mC at 9 29 35): 7810 a.u.
GAGGCCGGCTGACCTCAGCCTCCTGGCTGAGGTCAGCCGGCCTCACACTC: 2610 a.u.
GAGGCCGGATGACCGCAGCCTCCTGGCTGCGGTCATCCGGCCTCACACTC (5mC at 14): 2850 a.u.
GAGGCCGAGGACGTCGTGCCTCCTGGCACGACGTCCTCGGCCTCACACTC (5mC at 15 29 35): 3130 a.u.
GAGGCCGGCCGACGTCAGCCTCCTGGCTGACGTCGGCCGGCCTCACACTC: 5040 a.u.
GAGGCCGGCTCGCGTCAGCCTCCTGGCTGACGCGAGCCGGCCTCACACTC (5mC at 11 33): 4830 a.u.
GAGGCCGACCGCGTCGTGCCTCCTGGCACGACGCGGTCGGCCTCACACTC (5mC at 9 15 29 34): 4410 a.u.
GAGGCCGGAGGACGTCAGCCTCCTGGCTGACGTCCTCCGGCCTCACACTC (5mC at 35): 4090 a.u.
GAGGCCGGCTGCGGTCAGCCTCCTGGCTGACCGCAGCCGGCCTCACACTC (5mC at 32): 2650 a.u.
GAGGCCGACCACGTCGTGCCTCCTGGCACGACGTGGTCGGCCTCACACTC (5mC at 9 10 15 29): 4210 a.u.
GAGGCCGACGTCGTCGTGCCTCCTGGCACGACGACGTCGGCCTCACACTC (5mC at 9 15 29 35): 3120 a.u.
GAGGCCGACGACGGCGTGCCTCCTGGCACGCCGTCGTCGGCCTCACACTC (5mC at 9 15 29 31 35): 3190 a.u.
GAGGCCGGCTGCCGTCAGCCTCCTGGCTGACGGCAGCCGGCCTCACACTC (5mC at 12): 2910 a.u.
GAGGCCGACGACGTCCTGCCTCCTGGCAGGACGTCGTCGGCCTCACACTC (5mC at 9 15 35): 3040 a.u.
GAGGCCCGCTGACGTCAGCCTCCTGGCTGACGTCAGCGGGCCTCACACTC: 14900 a.u.
GAGGCCGGATGACGTCGGCCTCCTGGCCGACGTCATCCGGCCTCACACTC (5mC at 16 28): 10600 a.u.
GAGGCCGGATGCGGTCAGCCTCCTGGCTGACCGCATCCGGCCTCACACTC (5mC at 12): 2910 a.u.
GAGGCCGGCCGACGTCAGCCTCCTGGCTGACGTCGGCCGGCCTCACACTC (5mC at 34): 4100 a.u.

Block 3
Target: RNA binding protein fox-1 homolog 2, RRM domain, GST-SBP tag (RBFOX2, Homo sapiens, UniProt O43251-10, residues 100-194)
Technique: RNA Bind-n-Seq
Form: RNA
Matrix: in vitro
Concentration: 365 nM
Notes: natural RNA segment, single round, ends assumed
Relative to: no-protein control
Reading: higher = stronger binding
Measurement: RBNS enrichment (R)
Shared flanks, not repeated: GGGAGUUCUACAGUCCGACGAUC … UGGAAUUCUCGGGUGCCAA
Construct (chain): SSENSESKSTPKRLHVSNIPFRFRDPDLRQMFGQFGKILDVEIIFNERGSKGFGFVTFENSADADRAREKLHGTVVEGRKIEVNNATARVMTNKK
AACUGCUGUACUUUUGAUUCUUGUAUAUUAAAAAGUGUUACUGAGCAUUUUUAGAAUUGGGCUAACACGUUGCAUUGCAUUGUGGUGUGAGCUCUGUGACUAGAGAUACC: 3.06
UCAACAAAAAUUUAUUGACUGAAAUGAAUUUUAAAUGCAUGUGUAUGAACUUGUUUUUCUUAAUCUUUAAGAUGUCAGUAUUCAUGUAAAUAAACAAUAGAUCCAGCUUU: 3.85
AAAUUAUAGUUUGUCUUUUGUCUUAACAGUUCUGAAUGCUGUCCUCAAAGUAUAUAAUGUUUCAUGUACCAAGACCCUUUUCACAGUACAAUAAACAGAUCUAUUCAUAA: 0.373
AGUUUGCGCUGCAUGGUACUUGUGAAGCUUAAAUAUUUUGAGUGUUCUACUGUGUCUAGGAUUGUUGGGAUUGUACAUAUGGUACUCUUUCAUAAAUGAUAAAUGAUUCU: 3.21
GGCAGAGAUGCACUAGAAGACCUUCAUCCUCCCCUUCCUCUGCCCCAAGUCACUACAGUUGGUUCUAUUGAAGCCAGUCUUUAAGAAACCUGGGUUAAAGACACCAGCAC: 0.277
GCCCAAGAUUUUUUAUUUGAGGGUUUUUUGUUUUUUAAAAAAAAAUUGAACAAAGACUACUAAUGACUUUGUUUGAAUUAUCCACAUGAAAAUAAAGAGCCAUAGUUUCA: 0.81
UGCAGGCAAAGGAAACCCUCUGCUGCUUCCUUCCCCAGGAGCCAGGUGGGCACUGAAUGUGGUUUUUAGAUUUUUGUAUUGUGGACUGUCUUUGCCUCAUAUUAAAAACU: 1.15
GAAAAUGAAACCAUAAACUCUAAGUGGCUCUUAUAGGUGCUGAAGGGCUUAUUCUCAGCUAACCCUGGAAGGCUCUAGGGAGGGAGUCUUUUUCCUGAUCCUUGGUAUGA: 0.368
CCCAGGCUGGGGCUAUGCGCCGUCCCCCUACACUUCUGCCAGUGCCUUACUUCCUGGAGACCCACCCUGGGGUACCCCACUGCAGGGGGGUACCCCCUUUGCACUUUGAC: 0.738
AACCACCACAAAACAAGCUUUAUUAACACAGGAGCCUAGUGGGGAUUGCGAAACACAGGAAUGUGCAGGCGCUCCGGGGGGUGUAAAGUGAACGUUUCCAUCGUUAGAAU: 0.703
ACAGUGAGCUCAGAAAUAAAAACUCCAUUUUGAGACAUUCAGAAUGUCCCAACAUUACGACAACAUUUUUUUUUUUUUUUUCUAAUCCAGUCCAGGUUGGAAAGAAGUCU: 0.412
CAGAGCCGGUGGCAGAAGCAGUGGCCUGGCCCGGCUCUGGAGCCCAGCUUGUCUGGGCCCUGCCCAAGUUCCGCCAGGGAACCCAGCCCCAGCUCAAGUGCCGCCCCCUC: 0.347

Block 4
Target: Fragile X messenger ribonucleoprotein 1, C-terminal low-complexity region (Fmr1, Mus musculus, UniProt P35922)
Technique: RNA Bind-n-Seq
Form: RNA
Matrix: in vitro
Concentration: 200 nM
Notes: whole 134-nt RNA, ends assumed
Together with: 150 mM KCl
Relative to: input library
Reading: higher = stronger binding
Measurement: log2 enrichment
Shared flanks, not repeated: GGGAGUUCUACAGUCCGACGAUC … UGGAAUUCUCGGGUGUCAAGG
CACAGACAACACGCACCCACACAGACACAGAGGGAAGGGGUUGGGAUGGGGACAGGGUGCACAGCAGGGCGGGGUAGGACCUCAGCCCCU: 1.17
GUCCUGUGCUACACAUCGUAUGUACCGAAUCGGGGUUUUUUUGGGGUUUGGGGAGGGGAAAGUAUUAUGUUACGCCGUUCGGAUCUGCAC: 0.53
AAGUCCUGUGCUACACAUCGUAUGUACCGAAUCGGCCCCGGGCCCCGGGCCCCGGGGAAAGUAUUAUGUUACGCCGUUCGGAUCUGCACU: -0.731
CACAGACAACACGCACCCACACAGACACAGAGGGUAGGGGUUGGGAUGGGGACAGGGUGCACAGCAGGGCGGGGUAGGACCCCAGCCCCU: 1.46
UCCUCAAGUCCUGUGCUACACAUCGUAUGUACCGAAUCGGGAGGGAGGAGGGAAAGUAUUAUGUUACGCCGUUCGGAUCUGCACUUCCAG: 1.03
UGGCCCUGGUGGCAUGCGGGGAGGAAGAGGUAGCCUCAUGGAUCGUGGUGGUCCCGGUGGAAUGUUCAGAGGUGGCCGUGGUGGAGACAG: 0.0288
UCCUGUGCUACACAUCGUAUGUACCGAAUCGGGAAAGGGAAAAAAAGGGUUUUUUUGGGAAAGUAUUAUGUUACGCCGUUCGGAUCUGCA: -0.342
AGUCCUGUGCUACACAUCGUAUGUACCGAAUCGGGUUUUUGGGAAAAAAAGGGUGGGAAAGUAUUAUGUUACGCCGUUCGGAUCUGCACU: 0.679
GCAGGAAGUAAAAACAAAUGGAAAUGCUUCGGAUAGUGGCAGGGGUGGGGGUUGCUAAGGAAAGGGUGGGAUGGGAGUGGGUAAAGAAUU: 0.133
UCUAUGUAGCAUCCAGGUACUACUUCCUUUGGAAUGUCAGUAUUUAAUCUGAGCAAUGCGAUUGUGGGCAGUGGAAUCCUUGGGCUUUCU: -0.701
ACCAUGCAGGUGGGCAUCUUUGGGAAGUGGGGCAAGGGGGGGAUAGGGAGGGGGGUAACACUUUGGGAACAGGUGGUCCCAGGUCGUUGC: 0.818
UCAAGUCCUGUGCUACACAUCGUAUGUACCGAAUCGGGGCCCGGCCCGGGCCCGGAAAGUAUUAUGUUACGCCGUUCGGAUCUGCACUUC: -1.33
UCAAGUCCUGUGCUACACAUCGUAUGUACCGAAUCGGUUUUUGGAAAGGUUUGGAAAGUAUUAUGUUACGCCGUUCGGAUCUGCACUUCC: -0.94
UCCUGUGCUACACAUCGUAUGUACCGAAUCAAAUUUUUAAAUUUUUAAAUUUUUUUAAAAAAGUAUUAUGUUACGCCGUUCGGAUCUGCA: -0.325

For quick reference, copied from above (block 2):
GAGGCCGGCTGCGGTCAGCCTCCTGGCTGACCGCAGCCGGCCTCACACTC (5mC at 32): 2650 a.u.
GAGGCCGAGGACGTCGTGCCTCCTGGCACGACGTCCTCGGCCTCACACTC (5mC at 15 29 35): 3130 a.u.
GAGGCCGGCCGACGTCAGCCTCCTGGCTGACGTCGGCCGGCCTCACACTC: 5040 a.u.
GAGGCCGGCCGACGTCAGCCTCCTGGCTGACGTCGGCCGGCCTCACACTC (5mC at 34): 4100 a.u.
GAGGCCGGATGACGTCGGCCTCCTGGCCGACGTCATCCGGCCTCACACTC (5mC at 16 28): 10600 a.u.
GAGGCCGGAGGACGTCAGCCTCCTGGCTGACGTCCTCCGGCCTCACACTC (5mC at 35): 4090 a.u.
GAGGCCGACGACGGCGTGCCTCCTGGCACGCCGTCGTCGGCCTCACACTC (5mC at 9 15 29 31 35): 3190 a.u.
